Measured values pooled from the literature.
Compare with care: the assays were run in different laboratories. Values joined by “and” are separate records of one study, mostly repeats; a detail may differ. ± marks the error that the study gave.
MT-CYB/UQCRFS1: MT-CYB/UQCRFS1 (Homo sapiens, UniProt P00156+P47985)
TOP2A: DNA topoisomerase 2-alpha (TOP2A, Homo sapiens, UniProt P11388)
SLC6A6 Y138A: Sodium- and chloride-dependent taurine transporter (SLC6A6, Homo sapiens, UniProt P31641, Y138A)
KEAP1 Kelch domain: Kelch-like ECH-associated protein 1, Kelch domain (KEAP1, Homo sapiens, UniProt Q14145)

C=CC(=O)NCc1cccc(CN(C(=O)Nc2cccc(C(F)(F)F)c2)C2CCN(C(C)CCC)CC2)c1 (stereo not drawn)  covalent adduct formation (DCN1-like protein 1 (Homo sapiens, UniProt Q96GG9); covalent binder, LC-TOF mass spectrometry; 60 µM, overnight, 4 °C, added: DCN1-like protein 1 30 µM): 0%
NC(=O)NOCCCCCCCCCCCCCC[P+](c1ccccc1)(c1ccccc1)c1ccccc1.O=C([O-])C(F)(F)F  oxygen consumption rate (MT-CYB/UQCRFS1; complex III-dependent respiration, Seahorse XF96; HCT-116; 4 µM, 24 h; baseline: control): 29.8 ± 2.44%
Nc1ncnc2c1ncn2[C@@H]1O[C@H](COP(=O)(O)OP(=O)(O)OP(=O)(O)O)[C@@H](O)[C@H]1O  Hill coefficient (P2X purinoceptor 2 (P2rx2, Rattus norvegicus, UniProt P49653, K308A/K69A); agonist; cells expressing K308A-K69A-WT concatemer): 1.4 ± 0.2
Cc1nc(CSc2nc(SCc3ccc(C(C)C)cc3)nc(=O)[nH]2)cs1  mean linear DNA (TOP2A; DNA cleavage; 7.8 µM): 0%
O=C1C=Nc2ccc(Br)cc21  share of total products (Dehaloperoxidase B, ferric (Amphitrite ornata, UniProt Q9NAV7); product, HPLC; added: 5-bromoindole 500 µM, H2O2 500 µM): 49.2%
CC(C)CC(=O)N[C@H](C(=O)N[C@H](C(=O)N[C@@H](CC(C)C)[C@@H](O)CC(=O)N[C@@H](C)C(=O)N[C@@H](CC(C)C)[C@@H](O)CC(N)=O)C(C)C)C(C)C  association rate constant (Cathepsin D (CTSD, Homo sapiens, UniProt P07339); surface plasmon resonance): 2220 M⁻¹ s⁻¹
C=CC(=O)N1CCC(COCC(=O)N2CCN(c3nc(-c4cnc(N)nc4C(F)F)nc(N4CCOC[C@@H]4C)n3)CC2)CC1  remaining binding (MUSK (Homo sapiens, UniProt O15146); KINOMEscan; 1 µM): 100%
O=C(COP(=O)(O)O)[C@@H](O)[C@H](O)[C@H](O)COP(=O)(O)O  thermal stability ratio (OXSR1 (Homo sapiens, UniProt O95747); thermal proteome profiling; HepG2 cell lysate; concentration not given, 57 over 37 °C, mean; baseline: compound over control): 0.592
[O-][S+]1CCCCS1 (stereo not drawn)  target engagement (SOD1 (Homo sapiens, UniProt P00441, G94A); intact protein LC-MS; SOD1 G93A transgenic mice, whole blood; intravenous, 10 mg/kg, 1 h): 63% and 60.7%
NC(=O)NO  oxygen consumption rate (MT-CYB/UQCRFS1; complex III-dependent respiration, Seahorse XF96; HCT-116; 100 µM, 24 h; baseline: control): 94.6 ± 7.97%
CC(C)[C@H](NC(=O)c1cc(-c2cnn3cc(-c4ccc(OCCN5CCCCC5)cc4)cnc23)cs1)C(F)(F)F  relative inhibition (TGFBR1 (Homo sapiens, UniProt P36897); radiometric kinase; 15 nM; baseline: TGFBR1 over ULK1): 0.0455
O=c1nc(SCc2cc(F)cc(C(F)(F)F)c2)nc(SCc2ccc3nc(Cl)ccc3c2)[nH]1  relaxed DNA (TOP2A; DNA relaxation; 31.25 µM, replicate 1): 96.7%
NC(=O)NOCCCCCCCCCC[P+](c1ccccc1)(c1ccccc1)c1ccccc1.O=C([O-])C(F)(F)F  oxygen consumption rate (MT-CYB/UQCRFS1; complex III-dependent respiration, Seahorse XF96; HCT-116; 15 µM, 24 h; baseline: control): 64.3 ± 8.25%
COc1ccc(C[C@H](N)C(=O)N[C@H]2[C@@H](O)[C@H](n3cnc4c(N(C)C)ncnc43)O[C@@H]2CO)cc1  FLuc/RLuc ratio (Protein transport protein Sec61 subunit alpha isoform 1 (Homo sapiens, UniProt P61619); reporter gene, inhibitor, dual luciferase; HEK293 with SP-CD4-FLuc reporter; concentration not given): 1.04 and 1.33 and 1.26 and 1.05
Nc1ncnc2c1ncn2[C@@H]1O[C@H](COP(=O)(O)CP(=O)(O)OP(=O)(O)O)[C@@H](O)[C@H]1O  calcium influx (P2X purinoceptor 1 (P2RX1, Homo sapiens, UniProt P51575, D170A); calcium influx; 100 nM; baseline: ionomycin response): 0% and 1.67%
NCCCCC(=O)O  normalised MST signal (SLC6A6 Y138A; binding, microscale thermophoresis; 1 mM, room temperature, added: 50 nM labelled protein; higher = more binding): 0.0487
CO[C@@H]1O[C@H](CO)[C@H](O)[C@H](O)[C@H]1O  relative potency β (lecA (Pseudomonas aeruginosa, UniProt Q05097); ITC; baseline: monovalent Kd over compound Kd): 1
CC(=O)N[C@@H](C)C(=O)N[C@@H](CC(N)=O)C(=O)NCC(=O)N[C@@H](CC(N)=O)C(=O)N[C@@H](C)C(=O)N[C@@H](CC(N)=O)C(=O)N[C@@H](CCC(=O)O)C(=O)N[C@@H](CCC(=O)O)C(=O)N[C@@H](CC(N)=O)C(=O)NCC(=O)N[C@@H](CCC(=O)O)C(=O)N[C@@H](CCC(N)=O)C(=O)N[C@@H](CCC(=O)O)C(=O)N[C@@H](C)C(=O)N[C@@H](CC(=O)O)C(=O)N[C@@H](CC(N)=O)C(=O)N[C@@H](CCC(=O)O)C(=O)N[C@H](C(=O)N[C@@H](CC(=O)O)C(N)=O)C(C)C  ΔG (KEAP1 Kelch domain; binding, ITC; pH 7, 298.15 K): -7.45 ± 0.04 kcal/mol
CC(NC(=O)CCCc1ccc2ccc3cccc4ccc1c2c34)C(=O)NO (stereo not drawn)  binding stoichiometry (HDAC8 (Homo sapiens, UniProt Q9BY41); ITC; concentration not given): 0.9 ± 0.1
CCCCC[C@H](O)/C=C/[C@@H]1[C@H]2C/C(=C/CCCC(=O)O)O[C@H]2C[C@H]1O  GTP hydrolysis (GNAS, with Gbeta and Ggamma (Homo sapiens, UniProt P63092); modulator; 100 µM, without A2AR; baseline: Gs alone): 88.8% and 89.7% and 89.1% and 89.3%
Nc1ncnc2c1ncn2[C@@H]1O[C@H](COP(=O)(O)OP(=O)(O)O)[C@@H](O)[C@H]1O  ΔH (GUK1 (Homo sapiens, UniProt Q16774, R137A); binding, ITC): -7.3 ± 1.1 kcal/mol
C=CC(=O)N1CCC[C@@H](n2nc(-c3ccc(Oc4ccccc4)cc3)c3c(N)ncnc32)C1  remaining activity (ZAP70 (Homo sapiens, UniProt P43403); 1 µM): 356%
CC[C@H](C)[C@H](NC(C)=O)C(=O)N[C@@H](CC(N)=O)C(=O)N[C@H](C(=O)N[C@@H](CCCNC(=N)N)C(=O)N[C@@H](CCCCN)C(=O)N[C@@H](CCCNC(=N)N)C(=O)N[C@@H](CC(N)=O)C(=O)N[C@H](C(=O)N[C@@H](CCC(=O)O)C(=O)N[C@@H](CO)C(=O)NCC(=O)N[C@@H](CCC(=O)O)C(=O)N[C@@H](CCC(=O)O)C(=O)N[C@@H](CCC(=O)O)C(=O)N[C@@H](CC(C)C)C(=O)N[C@@H](C)C(=O)N[C@@H](CO)C(=O)N[C@@H](CCCCN)C(=O)N[C@@H](CC(C)C)C(=O)N[C@@H](CC(=O)O)C(N)=O)C(C)C)C(C)C  ΔH (KEAP1 Kelch domain; binding, ITC; pH 7, 298.15 K): -19.78 ± 0.066 kcal/mol
CC(C)C(=O)Nc1n[nH]c2cc(-c3cccc(NS(=O)(=O)C4CC4)c3)ccc12  ADP produced (PIP5K1C (Homo sapiens, UniProt O60331); ADP-Glo; 1.11 µM, added: 10 µM ATP): 2.31 µM
NCCCC(=O)O  normalised MST signal (SLC6A6 Y138A; binding, microscale thermophoresis; 500 µM, room temperature, added: 50 nM labelled protein; higher = more binding): -0.00232
CCCCC[S+]([O-])c1n[nH]c(N)n1 (stereo not drawn)  fold enrichment (YTHDF2 (Homo sapiens, UniProt Q9Y5A9); binding, affinity selection mass spectrometry; baseline: other proteins in batch): 1.49
CCS(=O)(=O)N1CC(CC#N)(n2cc(-c3ncnc4[nH]ccc34)cn2)C1  Stokes shift (ORM1 (Homo sapiens, UniProt P02763); 3D fluorescence spectroscopy; 4.8 µM): 54 nm

Excerpt of the above:
[O-][S+]1CCCCS1 (stereo not drawn)  target engagement (SOD1 (Homo sapiens, UniProt P00441, G94A); intact protein LC-MS; SOD1 G93A transgenic mice, whole blood; intravenous, 10 mg/kg, 1 h): 63% and 60.7%
Nc1ncnc2c1ncn2[C@@H]1O[C@H](COP(=O)(O)CP(=O)(O)OP(=O)(O)O)[C@@H](O)[C@H]1O  calcium influx (P2X purinoceptor 1 (P2RX1, Homo sapiens, UniProt P51575, D170A); calcium influx; 100 nM; baseline: ionomycin response): 0% and 1.67%
Nc1ncnc2c1ncn2[C@@H]1O[C@H](COP(=O)(O)OP(=O)(O)O)[C@@H](O)[C@H]1O  ΔH (GUK1 (Homo sapiens, UniProt Q16774, R137A); binding, ITC): -7.3 ± 1.1 kcal/mol
